Assay results from different studies.
Protocols differ between the studies behind these lines. “And” joins repeats or separate records; there may be more than shown. Numbers after ± are the reported error.
U2AF2: U2AF2 148-342 (Homo sapiens, UniProt P26368)
Sequence of UniProt P26368 (whole entry, looked up): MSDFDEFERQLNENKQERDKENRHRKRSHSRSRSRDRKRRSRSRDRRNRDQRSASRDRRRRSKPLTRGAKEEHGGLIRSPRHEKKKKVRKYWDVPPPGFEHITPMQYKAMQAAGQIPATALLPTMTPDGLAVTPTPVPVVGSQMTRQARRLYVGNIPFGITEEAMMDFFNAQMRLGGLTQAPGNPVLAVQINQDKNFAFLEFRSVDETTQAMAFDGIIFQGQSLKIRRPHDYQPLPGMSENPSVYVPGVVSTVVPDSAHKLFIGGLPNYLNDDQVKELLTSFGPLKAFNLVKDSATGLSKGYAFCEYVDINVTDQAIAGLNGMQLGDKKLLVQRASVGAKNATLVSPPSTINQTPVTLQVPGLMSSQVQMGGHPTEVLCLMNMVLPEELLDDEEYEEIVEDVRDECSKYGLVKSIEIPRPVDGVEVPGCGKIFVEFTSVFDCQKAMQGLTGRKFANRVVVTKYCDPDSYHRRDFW
B1: PYCR2 R119C (Homo sapiens, UniProt Q96C36); chain MSVGFIGAGQLAYALARGFTAAGILSAHKIIASSPEMNLPTVSALRKMGVNLTRSNKETVKHSDVLFLAVKPHIIPFILDEIGADVQARHIVVSCAAGVTISSVEKKLMAFQPAPKVICCMTNTPVVVQEGATVYATGTHALVEDGQLLEQLMSSVGFCTEVEEDLIDAVTGLSGSGPAYAFMALDALADGGVKMGLPRRLAIQLGAQALLGAAKMLLDSEQHPCQLKDNVCSPGGATIHALHFLESGGFRSLLINAVEASCIRTRELQSMADQEKISPAALKKTLLDRVKLESPTVSTLTPSSPGKLLTRSLALGGKKD
B2: enzyme F206A/H226Y (Oryctolagus cuniculus, UniProt P00178); chain GRLPPGPSPLPVLGNLLQMDRKGLLRSFLRLREKYGDVFTVYLGSRPVVVLCGTDAIREALVDQAEAFSGRGKIAVVDPIFQGYGVIFANGERWRALRRFSLATMRDFGMGKRSVEERIQEEARCLVEELRKSKGALLDNTLLFHSITSNIICSIVFGKRFDYKDPVFLRLLDLFFQSASLISSFSSQVFELFPGFLKYFPGTHRQIYRNLQEINTFIGQSVEKHRATLDPSNPRDFIDVYLLRMEKDKSDPSSEFHHQNLILTVLSLFFAGTETTSTTLRYGFLLMLKYPHVTERVQKEIEQVIGSHRPPALDDRAKMPYTDAVIHEIQRLGDLIPFGVPHTVTKDTQFRGYVIPKNTEVFPVLSSALHDPRYFETPNTFNPGHFLDANGALKRNEGFMPFSLGKRICLGEGIARTELFLFFTTILQNFSIASPVPPEDIDLTPRESGVGNVPPSYQIRFLAR
B3: NUDT3 (Homo sapiens, UniProt O95989); chain MMKLKSNQTRTYDGDGYKKRAACLCFRSESEEEVLLVSSSRHPDRWIVPGGGMEPEEEPSVAAVREVCEEAGVKGTLGRLVGIFENQERKHRTYVYVLIVTEVLEDWEDSVNIGRKREWFKIEDAIKVLQYHKPVQASYFETLRQGYSANNGTPVVATTYSVSAQSSMSGIR
B4: enzyme (Treponema denticola, UniProt Q73LY9); chain QTNGTMPKRKFVIAFHASVNTDKTGKNLIKELPDLQKRGINTLFLEIGYNYQWKSDPKLYNKYVLSETVAREIAAECRRLSIDLIPEINCLGHQSWENETFALLKAYPELDETPGLYPSNKDIYCRSLCSSNEKVYTILFGLIDEITEVFSVKKIHVGLDEVFLIGEDACPLCRGKDKAELFAGAVNRLYDHCVKKRGFTMYMWGDRLIDSEDEDSGYKGEYESSCNGTYPAVDLIPKDIIICDWHYDELERYGSIPYFLNKGFRVLPTSFKGIKAVNALIDYSLLYKDNPAMLGHMYTAWDNFTNKNLSRYKPMVKTIDKLKAGN
B5: enzyme (Lactiplantibacillus plantarum, UniProt Q06115); chain CTAITYQSYNNYFGRNFDYEISYNEMVTITPRKYPLVFRKVENLDHHYAIIGITADVESYPLYYDAMNEKGLCIAGLNFAGYADYKKYDADKVNITPFELIPWLLGQFSSVREVKKNIQKLNLVNINFSEQLPLSPLHWLVADKQESIVIESVKEGLKIYDNPVGVLTNNPNFDYQLFNLNNYRALSNSTPQNSFSEKVDLDSYSRGMGGLGLPGDLSSMSRFVRAAFTKLNSLSMQTESGSVSQFFHILGSVEQQKGLCEVTDGKYEYTIYSSCCDMDKGVYYYRTYDNSQINSVSLNHEHLDTTELISYPLRSEAQYYAVN
B6: enzyme (Arabidopsis thaliana, UniProt Q9C969); chain GSFGMLSRRTLGTDMPVMAQIRSLMAELTNPMSLAQGVVHWQPPQKALEKVKELVWDPIISSYGPDEGLPELRQALLKKLREENKLTNSQVMVTAGANQAFVNLVITLCDAGDSVVMFEPYYFNSYMAFQMTGVTNIIVGPGQSDTLYPDADWLERTLSESKPTPKVVTVVNPGNPSGTYVPEPLLKRIAQICKDAGCWLIVDNTYEYFMYDGLKHCCVEGDHIVNVFSFSKTYGMMGWRLGYIAYSERLDGFATELVKIQDNIPICAAIISQRLAVYALEEGSGWITERVKSLVKNRDIVKEALEPLGKENVKGGEGAIYLWAKLPEGHRDDFKVVRWLAHRHGVVVIPGCASGSPGYLRVSFGGLQEVEMRAAAARLRKGIEELLHHGMVE
B7: enzyme (UniProt Q83XK4); chain MATRIAILGAGPSGMAQLRAFQSAQEKGAEIPELVCFEKQADWGGQWNYTWRTGLDENGEPVHSSMYRYLWSNGPKECLEFADYTFDEHFGKPIASYPPREVLWDYIKGRVEKAGVRKYIRFNTAVRHVEFNEDSQTFTVTVQDHTTDTIYSEEFDYVVCCTGHFSTPYVPEFEGFEKFGGRILHAHDFRDALEFKDKTVLLVGSSYSAEDIGSQCYKYGAKKLISCYRTAPMGYKWPENWDERPNLVRVDTENAYFADGSSEKVDAIILCTGYIHHFPFLNDDLRLVTNNRLWPLNLYKGVVWEDNPKFFYIGMQDQWYSFNMFDAQAWYARDVIMGRLPLPSKEEMKADSMAWREKELTLVTAEEMYTYQGDYIQNLIDMTDYPSFDIPATNKTFLEWKHHKKENIMTFRDHSYRSLMTGTMAPKHHTPWIDALDDSLEAYLSDKSEIPVAKEA
B8: enzyme C434A (Methanosarcina mazei, UniProt Q8PVB1); chain MSEQRSVPLREHLLALKPCRHGGLIQETSETYGIPENEILDFSANFNPLGSPFDYPENGLNFEDIIKKSCGKLLEYPDNRYVEFREAAARFVGLGVTPQSIVPGNGSTEIVRLVVESVIEKGDKVLLPWPTFGEYEMQCRITGAEPVCPSQEEVNTLPDEVLEEAKILFICNPNNPTGKLRTREELKVLAERCREHKTLLYVDEAFIELSDPSQSVADLPAENNYVFVMRSLTKDFAIPGIRMGFGIAPPAMADILNTARLSWNLGAIANNTGIALLNIEGGIDSPYLKKAREMILKEGETLKAKIDRIRGFEAGEVNVNFILVDVSKFMLNSSELTARLAARGVLVRDCVSFHGLGKNYIRVAVRTEKENDRLIAAIGDVITEWGREQAKNELQHVIEKASEEGIGGRKTCEYYPCHFEGQNCTFCFCPFYPAENEKTGGKWIQSSRGGRVWSCVDCHLVHKKEIAQKILDCLMHEGDTDELVKVAWKEVMEPIL
B9: enzyme W53F (Thermoplasma volcanium, UniProt Q978S7); chain MAFHGLVKYSDITVEGYPKIQYHGFIGNNRTAMLVAMNGYIDFGCLPNFNSNAVFSSILDKNKGGYFAIFPSDTTDVYVDQYYKEMTNVLVTEFVKNGKIILRLTDFMPDSEYGKISFPEVHRFVESFSEPIDITIDFKPTFNYGQDKPIIEKDQHGFIFTTDKESIGISSEFPLRKNSDRIFGNVKMEPRSSSWIIALYGIHHLFRTTDYKSYLRLQETTDYWRKWASSSSYAGAYHSMVMRSALALKVLFYEPTGLMVAAPTASLPEAIGGERNWDYRFTWIRDTAYVIEALSSIGYKYEATEFLYDMMDMITRDNRIRTIYSIDDSNDLEERIIDYEGYRGSRPVRIGNKAVDQLQIDQYGSIVRAIHSMAKAGGIVNSYLWDFVEQVMAKIEYLWKYPDSSIWEFRTEPKQYVYSKVMSWAAFDSAISMAKDLGLSAPIKQWKSIQDEIKKEVLEKGFDTDTNSFVQYYGSKNIDAALLRLPILGFIPANDEKFLGTLSRIEKELMVDGYLFKRYREDDGLKGDEGSFLMLTFWYIEDLILMKRLKKAREVLESVLEKANHLGLYSEEIDEKSGDFLGNFPQALSHLGVIRVAPKLEEALLKRTSKINS
Sequence of UniProt P49419 (whole entry, looked up): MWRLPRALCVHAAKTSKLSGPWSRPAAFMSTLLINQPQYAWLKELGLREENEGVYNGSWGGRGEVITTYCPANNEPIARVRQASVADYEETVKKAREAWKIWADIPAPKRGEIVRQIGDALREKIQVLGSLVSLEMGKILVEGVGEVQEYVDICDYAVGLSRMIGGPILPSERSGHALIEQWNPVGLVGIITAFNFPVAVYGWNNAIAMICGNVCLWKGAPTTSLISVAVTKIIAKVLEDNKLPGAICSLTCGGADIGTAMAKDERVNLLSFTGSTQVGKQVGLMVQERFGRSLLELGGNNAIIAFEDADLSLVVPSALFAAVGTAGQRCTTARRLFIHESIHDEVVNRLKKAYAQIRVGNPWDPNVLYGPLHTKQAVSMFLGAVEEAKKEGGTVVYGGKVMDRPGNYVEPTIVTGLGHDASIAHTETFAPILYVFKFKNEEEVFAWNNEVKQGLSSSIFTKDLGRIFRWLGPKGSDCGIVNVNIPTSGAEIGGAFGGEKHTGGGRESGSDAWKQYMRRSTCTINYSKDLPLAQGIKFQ

Substance	tested on	test	system	setting	quantity	value
B1 (PYCR2 R119C)	NC(=O)C1=CN([C@@H]2O[C@H](COP(=O)(O)OP(=O)(O)OC[C@H]3O[C@@H](n4cnc5c(N)ncnc54)[C@H](O)[C@@H]3O)[C@@H](O)[C@H]2O)C=CC1	steady-state kinetics	–	pH 7.5, 37 °C, apparent, cofactor varied, with: DL-P5C 5000 µM	kcat/Km	440 ± 70 M⁻¹ s⁻¹
UAUGUUACC (ssRNA)	U2AF2	sequencing of bound RNA	RNA	motif only	Kd	10.1 µM
enzyme (Chlorobaculum tepidum, UniProt Q8KC02)	CC(=O)C(=O)O	steady-state kinetics	–	pH 7.5, 30 °C	kcat/Km	11300 M⁻¹ s⁻¹
ALDH7A1 (Homo sapiens, UniProt P49419)	N[C@@H](CCCC=O)C(=O)O	steady-state kinetics	–	pH 8, apparent, with: NAD+ 2.5 mM	kcat/Km	2100 ± 480 M⁻¹ s⁻¹
B2 (enzyme F206A/H226Y)	CCOc1ccc2c(C(F)(F)F)cc(=O)oc2c1	steady-state kinetics	–	37 °C, with: 7-EFC	kcat/Km	333 M⁻¹ s⁻¹
enzyme (Rhodopseudomonas palustris, UniProt Q6N7F5)	CC(C)C(=O)O	steady-state kinetics	–	pH 7.5, 37 °C	kcat/Km	42000 M⁻¹ s⁻¹
B3 (NUDT3)	Nc1ncnc2c1ncn2[C@@H]1O[C@H](COP(=O)(O)OP(=O)(O)OP(=O)(O)OP(=O)(O)OP(=O)(O)OC[C@H]2O[C@@H](n3cnc4c(N)ncnc43)[C@H](O)[C@@H]2O)[C@@H](O)[C@H]1O	steady-state kinetics	–	with: Mg2+	kcat/Km	16 M⁻¹ s⁻¹
B4 (enzyme)	CC(=O)N[C@H]1[C@H](Oc2ccc([N+](=O)[O-])cc2)O[C@H](CO)[C@@H](O[C@@H]2O[C@H](CO)[C@H](O)[C@H](O)[C@H]2O)[C@@H]1O	steady-state kinetics	–	pH 6, 40 °C	kcat/Km	1570 M⁻¹ s⁻¹
B5 (enzyme)	C[C@H](CCC(=O)N[C@@H](Cc1ccccc1)C(=O)O)[C@H]1CC[C@H]2[C@@H]3[C@H](O)C[C@@H]4C[C@H](O)CC[C@]4(C)[C@H]3C[C@H](O)[C@]12C	steady-state kinetics	–	pH 6.2, 37 °C	kcat/Km	13800 ± 2000 M⁻¹ s⁻¹
B6 (enzyme)	O=C(O)C(=O)Cc1c[nH]c2ccccc12	steady-state kinetics	–	–	kcat/Km	2500 M⁻¹ s⁻¹ and 4170 M⁻¹ s⁻¹
B7 (enzyme)	NC(=O)C1=CN([C@@H]2O[C@H](COP(=O)(O)OP(=O)(O)OC[C@H]3O[C@@H](n4cnc5c(N)ncnc54)[C@H](OP(=O)(O)O)[C@@H]3O)[C@@H](O)[C@H]2O)C=CC1	steady-state kinetics	–	pH 7, 30 °C, cofactor varied	kcat/Km	9200 M⁻¹ s⁻¹
spt R378K (Sphingomonas paucimobilis)	CCCCCCCCCCCCCCCC(=O)SCCNC(=O)CCNC(=O)[C@H](O)C(C)(C)COP(=O)(O)OP(=O)(O)OC[C@H]1O[C@@H](n2cnc3c(N)ncnc32)[C@H](O)[C@@H]1OP(=O)(O)O	steady-state kinetics	–	with: PLP	kcat/Km	5000 M⁻¹ s⁻¹
enzyme (Klebsiella pneumoniae, UniProt A6THV5)	CSCC[C@@H](NC(C)=O)C(=O)O	steady-state kinetics	–	pH 8, 35 °C	kcat/Km	46.7 ± 1.67 M⁻¹ s⁻¹
enzyme (Plasmodium falciparum, UniProt C0H484)	O=P(O)(O)OP(=O)(O)OP(=O)(O)OC[C@H]1O[C@@H](n2cnc3c(O)ncnc32)[C@H](O)[C@@H]1O	steady-state kinetics	–	with: Mn2+	kcat/Km	23000 ± 3000 M⁻¹ s⁻¹
B8 (enzyme C434A)	Nc1ncnc2c1ncn2[C@@H]1O[C@H](COP(=O)(O)OP(=O)(O)OP(=O)(O)O)[C@@H](O)[C@H]1O	steady-state kinetics	–	pH 8.5, 25 °C, apparent, anoxic, with: L-Thr 10 mM	kcat/Km	1170 ± 310 M⁻¹ s⁻¹
B9 (enzyme W53F)	OC[C@H]1O[C@H](O[C@H]2O[C@H](CO)[C@@H](O)[C@H](O)[C@H]2O)[C@H](O)[C@@H](O)[C@@H]1O	steady-state kinetics	–	pH 3.7, 30 °C	kcat/Km	330 M⁻¹ s⁻¹
GUCAUCUCA (ssRNA)	U2AF2	sequencing of bound RNA	RNA	motif only	Kd	8.2 µM

A few entries again:
Substance	tested on	test	system	setting	quantity	value
enzyme (Chlorobaculum tepidum, UniProt Q8KC02)	CC(=O)C(=O)O	steady-state kinetics	–	pH 7.5, 30 °C	kcat/Km	11300 M⁻¹ s⁻¹
ALDH7A1 (Homo sapiens, UniProt P49419)	N[C@@H](CCCC=O)C(=O)O	steady-state kinetics	–	pH 8, apparent, with: NAD+ 2.5 mM	kcat/Km	2100 ± 480 M⁻¹ s⁻¹
